Published values of several laboratories.
Each line is one published result; not all experiments were run side by side.
Organism: Enterococcus faecium

| SMILES | method | strain | notes | with | reading | MIC |
| --- | --- | --- | --- | --- | --- | --- |
| CCCCN(C(=O)Nc1cc(-c2ccc(Cl)c(Cl)c2)sc1C(=O)O)c1ccccc1 |  | DSM 20477 |  | folic acid 50 ng/mL |  | 16 to 32 µM |
| CN[C@H](CC(C)C)C(=O)N[C@H]1C(=O)N[C@@H](CC(N)=O)C(=O)N[C@H]2C(=O)N[C@H]3C(=O)N[C@H](C(=O)N[C@H](C(=O)O)c4cc(O)cc(O)c4-c4cc3ccc4O)[C@H](O)c3ccc(c(Cl)c3)Oc3cc2cc(c3O[C@@H]2O[C@H](CO)[C@@H](O)[C@H](O)[C@H]2O[C@H]2C[C@](C)(N)[C@H](O)[C@H](C)O2)Oc2ccc(cc2Cl)[C@H]1O |  | ATCC 6569 |  |  |  | 1 µM |
| C/C=C(\C)c1cc(OC(=O)c2c(O)c(C)c(O)c(Cl)c2/C(C)=C/C)c(C)c(O)c1C(=O)O | broth microdilution | 35682 |  |  |  | > 64 mg/L |
| Cn1c(SCc2ccc(Cl)cc2)nnc1-c1cncc(C#Cc2ccccc2)c1 |  | vancomycin-resistant |  |  | no activity at value | ≥ 20 mg/L |
| Cc1ccc(CCC(=O)Nc2nnc(S(N)(=O)=O)s2)cc1 |  | ATCC 700221 |  |  |  | 0.184 µM |
| CN[C@H](CC(C)C)C(=O)N[C@H]1C(=O)N[C@@H](CC(N)=O)C(=O)N[C@H]2C(=O)N[C@H]3C(=O)N[C@H](C(=O)N[C@H](C(=O)O)c4cc(O)cc(O)c4-c4cc3ccc4O)[C@H](O)c3ccc(c(Cl)c3)Oc3cc2cc(c3O[C@@H]2O[C@H](CO)[C@@H](O)[C@H](O)[C@H]2O[C@H]2C[C@](C)(N)[C@H](O)[C@H](C)O2)Oc2ccc(cc2Cl)[C@H]1O |  | Enterococcus faecium | 40 strains |  |  | 1.71 mg/L |
| O=[N+]([O-])c1ccc2[nH]c(CNCC34CC5CC(CC(C5)C3)C4)nc2c1 |  | ATCC 19434 |  |  |  | > 128 mg/L |
| C/C=C(\C)c1cc(O)c(C)c(OC(=O)c2c(C)c(Cl)c(O)c(Cl)c2O)c1 | broth microdilution | 36235 |  |  |  | 8 mg/L |
| c1ccc(OCCn2c(CNCC34CC5CC(CC(C5)C3)C4)nc3ccccc32)cc1 |  | ATCC 19434 |  |  |  | > 128 mg/L |
| CC(=O)NC[C@H]1CN(c2ccc(N3CCOCC3)c(F)c2)C(=O)O1 |  | -30, vancomycin-intermediate |  |  |  | 4 mg/L |
| c1ccc2[nH]c(CNCC34CC5CC(CC(C5)C3)C4)nc2c1 |  | ATCC 19434 |  |  |  | 128 mg/L |
| CCCCCCC#Cc1cncc(-c2nnc(SCc3ccc(Cl)cc3)n2C)c1 |  | vancomycin-resistant |  |  | no activity at value | ≥ 20 mg/L |
| C/C=C(\C)c1cc(O)c(C)c(OC(=O)c2c(C)cc(O)c(Cl)c2O)c1 | broth microdilution | 35682 |  |  |  | 16 mg/L |
| CC(C)(CN)CNCc1nc2ccccc2n1CCOc1ccccc1 |  | ATCC 19434 |  |  |  | 16 mg/L |
| CC(=O)NC[C@H]1CN(c2ccc(N3CCOCC3)c(F)c2)C(=O)O1 |  | NR-31933 |  |  |  | 2.96 µM |
| CN[C@H](CC(C)C)C(=O)N[C@H]1C(=O)N[C@@H](CC(N)=O)C(=O)N[C@H]2C(=O)N[C@H]3C(=O)N[C@H](C(=O)N[C@H](C(=O)O)c4cc(O)cc(O)c4-c4cc3ccc4O)[C@H](O)c3ccc(c(Cl)c3)Oc3cc2cc(c3O[C@@H]2O[C@H](CO)[C@@H](O)[C@H](O)[C@H]2O[C@H]2C[C@](C)(N)[C@H](O)[C@H](C)O2)Oc2ccc(cc2Cl)[C@H]1O | broth microdilution | 36235 |  |  |  | > 64 mg/L |
| CCCCCCC#Cc1cncc(-c2nnc(SCc3ccc([N+](=O)[O-])cc3)n2C)c1 |  | vancomycin-resistant |  |  | no activity at value | ≥ 20 mg/L |
| CN[C@H](CC(C)C)C(=O)N[C@H]1C(=O)N[C@@H](CC(N)=O)C(=O)N[C@H]2C(=O)N[C@H]3C(=O)N[C@H](C(=O)N[C@H](C(=O)O)c4cc(O)cc(O)c4-c4cc3ccc4O)[C@H](O)c3ccc(c(Cl)c3)Oc3cc2cc(c3O[C@@H]2O[C@H](CO)[C@@H](O)[C@H](O)[C@H]2O[C@H]2C[C@](C)(N)[C@H](O)[C@H](C)O2)Oc2ccc(cc2Cl)[C@H]1O |  | strain -30, vancomycin-intermediate |  |  |  | 4 mg/L |
| C/C=C(\C)c1cc(OC(=O)c2c(C)c(Cl)c(O)c(Cl)c2O)c(C)c(O)c1C(=O)O | broth microdilution | 36711 |  |  |  | > 64 mg/L |
| CCCCCCC#Cc1cncc(-c2nnc(SCc3ccc(C#N)cc3)n2C)c1 |  | vancomycin-resistant |  |  | no activity at value | ≥ 20 mg/L |
| CC1(C)S[C@@H]2[C@H](NC(=O)[C@H](N)c3ccccc3)C(=O)N2[C@H]1C(=O)O | broth microdilution | 35682 |  |  |  | > 64 mg/L |
| C[N+](C)(C)CCCN |  | VanA VRE ATCC BAA-2317 |  | LTA 100 µg/mL |  | > 800 mg/L |
